Published values gathered from unrelated publications.
Each numbered part is a random draw from the data of one study; scales do not carry over between parts.

Set 1 — method: RNA Bind-n-Seq; molecule type: RNA; medium: in vitro; concentration: 365 nM; relative to: no-protein control; reading: higher = stronger binding
Target: RNA binding protein fox-1 homolog 2, RRM domain, GST-SBP tag (RBFOX2, Homo sapiens, UniProt O43251-10, residues 100-194)
Setting: natural RNA segment, single round, ends assumed
Construct (chain): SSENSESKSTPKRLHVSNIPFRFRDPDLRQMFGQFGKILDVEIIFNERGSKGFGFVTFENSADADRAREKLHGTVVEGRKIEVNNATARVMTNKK
For `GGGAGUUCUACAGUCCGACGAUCCAUUUUACUUAAAUGGAAAAUGUUUUUCAAAUAAAUACUUAUGUUGUUCAUGUUCCAAGUUAUUCAAUUCCUUUAUGAGUGAAUGUUUUUACUUUUGACUCCUAAAUAGGUGGAAUUCUCGGGUGCCAA`, “RBNS enrichment (R)” read 0.651.
Under “RBNS enrichment (R)”, `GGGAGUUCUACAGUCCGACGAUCCUACUUUGAGAGAAUUUCAAUAUUCUCUUAAUGUUGUGUAAUUGAUUAGGUAACUAAAAAGCGCAAAUUGUUGGCAGGUUUUGCUGCACAUUGUUCUAUGUCUUUGUUGGUGGAAUUCUCGGGUGCCAA` is recorded as 0.351.
For `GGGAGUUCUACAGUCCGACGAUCGCUUCUUGUCUUUAACAAAGUCUUUGUCUUCUAAGAGCAACCCCGCAGUAAACAACAGAGGGGUUGCUGGACUUGAGGGUGACGAGACAGAUGAUCAUAGCAGGGAUUUGUGGAAUUCUCGGGUGCCAA`, “RBNS enrichment (R)” read 0.341.
`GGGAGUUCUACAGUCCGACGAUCUCAUUAACCCUGCAGCUGCCUGGUCUUGUCUGCUGGAGGGAGGAGAACACAGCCAUCUUGGCCCACUAUCAGGACCAGGCAUGACUCACCAGUGUCAUCUCUGCACUUCAUGGAAUUCUCGGGUGCCAA`: “RBNS enrichment (R)” 0.599.
Under “RBNS enrichment (R)”, `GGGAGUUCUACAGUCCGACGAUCCCCCCAUAUUCAGCCACCUGCUGCACCAGGAAGAGGGUGUGAAAGAUUGUGCAUCUGCAUUCAACUACCCUGAACCCUUAGGGAAGAAAUGGAUUCCCUGGCUGAGCCAGUGGAAUUCUCGGGUGCCAA` is recorded as 0.449.
Under “RBNS enrichment (R)”, `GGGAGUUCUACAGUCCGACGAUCUGCUCUGUAGUUUAUGCCAAGACCACAAUGACUCUUUACCCCAAGAAAGUCUCUUGACUUAAGUUCUGAGACUCCAAAGACUGCACAUAAGUUUUAGACAUACAAGUGUCUGGAAUUCUCGGGUGCCAA` is recorded as 0.403.
`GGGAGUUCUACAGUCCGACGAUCUCCACCAGGCCUGUAACAUCUUGUUGAGAUCAUUUCUAUGGCCCAAUACUUGUCGCUCUGGGGUUUUGUCUUGUUGAGGAGAGGACAGCAGUUUCUGGACCAUGUUAUCAUGGAAUUCUCGGGUGCCAA` — result for “RBNS enrichment (R)”: 3.31.
`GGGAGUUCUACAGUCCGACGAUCCCUUGACCAACUAGUCCAGCAUUUGACAUGCAUUUUAACUUUUUGGUUCAAUUUCAAGUCUGCUGUGGCUAAUAGUGGUCAAGAUUCCGAACUAGGACUUUCCUCUGUGAUGGAAUUCUCGGGUGCCAA`: “RBNS enrichment (R)” 0.231.
Under “RBNS enrichment (R)”, `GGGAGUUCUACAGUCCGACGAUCCUGGAUUGGAGAUUAUUCUUGGUUAUGUUUUGGAAUCAGUCCUUUAUCUUAGUGUGCACUUGAUUGUGAGUUUUAAGAUUAUGGUUUUAGGAUUUCUUUUAUUUUUUGUCUGGAAUUCUCGGGUGCCAA` is recorded as 1.52.
`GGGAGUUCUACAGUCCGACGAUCUGACGAGGAGAUGACGGGCGAAUACCCUGCUGCCCGGUGCCUUGAGGGGGUCUCAGGGCAGCAGCAUACAAGGUGGCAGCGGGUAACCCUGCCUUGUUCUGUCAUCCAGGUGGAAUUCUCGGGUGCCAA`: “RBNS enrichment (R)” 0.295.
`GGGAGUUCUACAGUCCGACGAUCGACUGUGUGGUUCCAUCUCUGGCCAGGCCACUUCCAGCCAGCAAGGACACCAGAGGCUGCCUUAGCAGAUGGGUCACACUGCUUCCAGCCUUAGCCAGCCAGUGACAAGUUGGAAUUCUCGGGUGCCAA` — result for “RBNS enrichment (R)”: 0.297.
`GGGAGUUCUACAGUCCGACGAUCAUAUUUAUUUGACAGCUAUGAGGAACUAAAUUUAGAGGUUUCUCCAAUCUUAUAUGAAUAUUUUUCAUAAAAUAGUUGUGAUUAUAUUUUUACAUCUUUUAUGCACCAAAUGGAAUUCUCGGGUGCCAA`: “RBNS enrichment (R)” 0.731.

Set 2 — method: RNA Bind-n-Seq; molecule type: RNA; medium: in vitro; concentration: 200 nM; setting: whole 134-nt RNA, ends assumed; together with: 150 mM LiCl; relative to: input library; reading: higher = stronger binding; each molecule: 7-deaza-guanosine replaces G
Target: Ras GTPase-activating protein-binding protein 1, full length (G3BP1, Homo sapiens, UniProt Q13283)
Sequence of UniProt Q13283 (whole entry, looked up): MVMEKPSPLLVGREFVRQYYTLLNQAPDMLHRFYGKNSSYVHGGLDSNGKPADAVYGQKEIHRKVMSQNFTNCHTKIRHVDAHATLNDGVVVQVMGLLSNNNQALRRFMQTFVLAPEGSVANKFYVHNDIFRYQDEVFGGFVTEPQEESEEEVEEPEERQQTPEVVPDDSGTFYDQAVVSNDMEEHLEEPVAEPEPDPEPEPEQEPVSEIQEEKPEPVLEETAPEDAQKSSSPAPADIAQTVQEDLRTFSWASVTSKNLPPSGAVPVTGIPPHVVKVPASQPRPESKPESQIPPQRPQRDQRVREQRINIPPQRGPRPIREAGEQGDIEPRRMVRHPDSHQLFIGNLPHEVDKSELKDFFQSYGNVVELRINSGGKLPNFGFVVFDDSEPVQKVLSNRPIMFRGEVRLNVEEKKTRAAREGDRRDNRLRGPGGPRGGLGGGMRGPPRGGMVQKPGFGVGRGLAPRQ
The log2 enrichment of `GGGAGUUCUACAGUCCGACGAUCGCAGGAAGUAAGAACAAAUGGAAAUGCUUCGGAUAGUGGCAGGGGUGGGGGUUGCUAAGGAAAGGGUGGGAUGGGAGUGGGUAAAGAGUUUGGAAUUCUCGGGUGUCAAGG` is reported as -0.0796.
The log2 enrichment of `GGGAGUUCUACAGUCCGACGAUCAACACUCAAACCACCAUCAAGCUUUUCCAGGAAUGCUGUCCUCAUUCCACUGACAGAGUUGUUCUUAUUGGAGGAAAACCCGAUAGGGUUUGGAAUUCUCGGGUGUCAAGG` is reported as 1.23.
With `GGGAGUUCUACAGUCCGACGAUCUCCUGUGCUACACAUCGUAUGUACCGAAUCGGGGAAAAAAGGGAAAAAAGGAAAAAAGGAAAGUAUUAUGUUACGCCGUUCGGAUCUGCAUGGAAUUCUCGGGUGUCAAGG` the log2 enrichment was 0.0989.
The log2 enrichment of `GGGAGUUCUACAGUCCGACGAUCUGGUGUUAUUUUUGCACUACAAGGGCUCUGAAGACUGCCAGGCUUGAAAUGAAGAACGAUGUCACCUGCCUAUCACAGCCAGGUGACAAUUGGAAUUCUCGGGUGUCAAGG` is reported as -3.64.
`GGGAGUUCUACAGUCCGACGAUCUCCUCAAGUCCUGUGCUACACAUCGUAUGUACCGAAUCGGUGGGUGGGUGGGAAAGUAUUAUGUUACGCCGUUCGGAUCUGCACUUCCAGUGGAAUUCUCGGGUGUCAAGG` gave a log2 enrichment of 0.953.
The log2 enrichment of `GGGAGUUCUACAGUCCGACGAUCUCAAUGCCGGCUAUGCCCUGGCCCCAGCCACCAGUGCCAACGACAGCGAGCAGCAGAGCCUGUCCAGCGAUGCAGACACCCUGUCCCUCAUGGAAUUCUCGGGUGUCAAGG` is reported as -1.19.
For `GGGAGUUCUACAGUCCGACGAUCCACAGACAACACGCACCCACACAGACACAGAGGGAAGGGGUUGGGAUGGGGACAGGGUGCACAGCAGGGCGGGGUAGGACCCGAGCCCCUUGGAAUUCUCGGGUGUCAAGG`, the log2 enrichment was -0.889.
`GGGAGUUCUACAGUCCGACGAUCGUCCUGUGCUACACAUCGUAUGUACCGAAUCGGGAAAAAAGGAAAAAAGGAAAAAAGGAAAGUAUUAUGUUACGCCGUUCGGAUCUGCACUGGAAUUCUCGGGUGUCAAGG` has a log2 enrichment of -0.527.
For `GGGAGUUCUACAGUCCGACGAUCUGGGAGGUGGAUUUUGUUUAUUUUUUUAGCUCAUUUCCAGGGGUGGGAAUUUUUUUUUAAUAUGUGUCGUGAAUAAAGUUGUUUUUGAAAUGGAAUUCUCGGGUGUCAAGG`, the log2 enrichment was 0.0758.
For `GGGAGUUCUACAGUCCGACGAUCUGGCCCUGGUGGCAUGCGGGGAGGAAGAGGUGGCCUCAUGGAUCGUGGUGGUCCCGGUGGAAUGUUCAGAGCUGGCCGUGGUGGAGACAGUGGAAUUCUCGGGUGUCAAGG`, the log2 enrichment was -0.206.
The log2 enrichment of `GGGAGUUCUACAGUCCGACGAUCACCAUGCAGGUGGGCAUCUUUGGGAAGUGGGAAAAGGGGGGGAUAGGGAGGGGGGUAACACUUUGGGAACAGGUGGUCCCAGGUCGUUUCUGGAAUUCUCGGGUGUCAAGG` is reported as 0.38.

Set 3 — method: protein binding microarray; molecule type: double-stranded DNA, one strand shown; medium: in vitro; concentration: not given; relative to: not given; reading: higher = stronger binding
Target: Histone acetyltransferase KAT6A, winged helix 1, GST fusion (KAT6A, Homo sapiens, UniProt Q92794, residues 1-85)
Setting: 8-mer, flanks averaged, mean of 2 arrays, mostly near background
Construct (chain): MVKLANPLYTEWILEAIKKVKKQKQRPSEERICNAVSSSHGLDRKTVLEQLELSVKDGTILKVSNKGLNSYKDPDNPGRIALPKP
`ACACACAT` gave an E-score of -0.212.
The E-score of `ATCAGTTG` is reported as -0.149.
`AATGACGG` gave an E-score of 0.283.
`ACTGCTGC` gave an E-score of -0.0272.
With `AAGCTTTG` the E-score was -0.114.
The E-score of `GCAGGGCA` is reported as -0.075.
With `AGTCCACC` the E-score was -0.215.
The E-score of `AACGCGCC` is reported as 0.358.
With `ACTACGAT` the E-score was -0.0482.
The E-score of `AGTGCGGA` is reported as 0.136.
The E-score of `AGCCACAG` is reported as -0.214.
With `GTGGCAGA` the E-score was -0.0354.
`AAGCAGTC` has an E-score of -0.192.
`AGTCAACC` gave an E-score of -0.151.
With `CTTAACAC` the E-score was 0.013.
`CCGGGGAC` gave an E-score of 0.221.
With `GGCCCACA` the E-score was -0.0754.
The E-score of `ATCTTTCG` is reported as -0.146.
With `AGGCTGCG` the E-score was 0.0658.
For `CTGGGACC`, the E-score was -0.0892.
With `GCCGAATA` the E-score was 0.112.
The E-score of `CCCAGAAA` is reported as -0.254.
`ATAACGCC` has an E-score of 0.0868.
`ATAACGTA` gave an E-score of -0.0579.

Set 4 — method: universal PBM; molecule type: double-stranded DNA, one strand shown; medium: in vitro; concentration: not given; reading: higher = stronger binding
Target: Sal-like protein 4, full length isoform B (SALL4, Homo sapiens, UniProt Q9UJQ4-2, residues 1-616)
Setting: 8-mer, flanks averaged, mean of replicates
Residues (chain): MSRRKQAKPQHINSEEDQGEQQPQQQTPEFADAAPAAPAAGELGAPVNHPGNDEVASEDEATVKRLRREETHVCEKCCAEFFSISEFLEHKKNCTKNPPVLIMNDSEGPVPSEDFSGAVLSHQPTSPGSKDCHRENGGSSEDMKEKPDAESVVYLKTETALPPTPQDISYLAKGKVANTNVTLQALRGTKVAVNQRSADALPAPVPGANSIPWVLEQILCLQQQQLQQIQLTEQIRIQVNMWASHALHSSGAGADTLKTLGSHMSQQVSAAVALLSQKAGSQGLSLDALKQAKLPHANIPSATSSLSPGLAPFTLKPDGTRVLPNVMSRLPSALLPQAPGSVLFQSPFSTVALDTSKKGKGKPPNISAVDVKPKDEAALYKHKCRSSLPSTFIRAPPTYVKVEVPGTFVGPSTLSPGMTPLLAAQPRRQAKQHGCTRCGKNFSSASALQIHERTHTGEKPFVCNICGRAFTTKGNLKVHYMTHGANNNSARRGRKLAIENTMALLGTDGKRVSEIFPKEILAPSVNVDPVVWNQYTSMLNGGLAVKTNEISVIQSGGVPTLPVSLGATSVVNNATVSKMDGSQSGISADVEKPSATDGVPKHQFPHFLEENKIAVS
`GCATTGCC` gave an E-score of -0.109.
The E-score of `AGTAAATG` is reported as 0.174.
`CATTTCTA` gave an E-score of 0.21.
`CGGGGCTC` has an E-score of -0.322.
For `GGTAAAAA`, the E-score was 0.16.
With `AACTCGGC` the E-score was -0.171.
For `ACAGCTGG`, the E-score was -0.223.
With `CCGACGCA` the E-score was -0.192.
The E-score of `TCCGGTAA` is reported as 0.0131.
For `GTGCTAGA`, the E-score was 0.0315.
The E-score of `GATCGCGA` is reported as -0.0101.
For `AATGTGGA`, the E-score was 0.209.
With `ATGAGGCG` the E-score was -0.037.
For `CTCCCTCC`, the E-score was -0.292.
For `GAAACCGA`, the E-score was -0.15.
For `CCGCGAAC`, the E-score was -0.252.
`AACATGGA` gave an E-score of 0.213.
The E-score of `AACTGTGG` is reported as -0.106.
`CAACAGAC` has an E-score of -0.00949.
`AGGTCACA` has an E-score of -0.0698.
`GTTCCAGA` has an E-score of -0.0762.
The E-score of `AGTGGTTA` is reported as 0.0815.
For `CTAAATCC`, the E-score was -0.16.
The E-score of `GCAATCCC` is reported as -0.216.
With `CTAGGCGA` the E-score was -0.16.
